Results gathered from unrelated publications.
Each line is one published result; not all experiments were run side by side. ± marks the error that the study gave.
Sequence of UniProt O75164 (whole entry, looked up): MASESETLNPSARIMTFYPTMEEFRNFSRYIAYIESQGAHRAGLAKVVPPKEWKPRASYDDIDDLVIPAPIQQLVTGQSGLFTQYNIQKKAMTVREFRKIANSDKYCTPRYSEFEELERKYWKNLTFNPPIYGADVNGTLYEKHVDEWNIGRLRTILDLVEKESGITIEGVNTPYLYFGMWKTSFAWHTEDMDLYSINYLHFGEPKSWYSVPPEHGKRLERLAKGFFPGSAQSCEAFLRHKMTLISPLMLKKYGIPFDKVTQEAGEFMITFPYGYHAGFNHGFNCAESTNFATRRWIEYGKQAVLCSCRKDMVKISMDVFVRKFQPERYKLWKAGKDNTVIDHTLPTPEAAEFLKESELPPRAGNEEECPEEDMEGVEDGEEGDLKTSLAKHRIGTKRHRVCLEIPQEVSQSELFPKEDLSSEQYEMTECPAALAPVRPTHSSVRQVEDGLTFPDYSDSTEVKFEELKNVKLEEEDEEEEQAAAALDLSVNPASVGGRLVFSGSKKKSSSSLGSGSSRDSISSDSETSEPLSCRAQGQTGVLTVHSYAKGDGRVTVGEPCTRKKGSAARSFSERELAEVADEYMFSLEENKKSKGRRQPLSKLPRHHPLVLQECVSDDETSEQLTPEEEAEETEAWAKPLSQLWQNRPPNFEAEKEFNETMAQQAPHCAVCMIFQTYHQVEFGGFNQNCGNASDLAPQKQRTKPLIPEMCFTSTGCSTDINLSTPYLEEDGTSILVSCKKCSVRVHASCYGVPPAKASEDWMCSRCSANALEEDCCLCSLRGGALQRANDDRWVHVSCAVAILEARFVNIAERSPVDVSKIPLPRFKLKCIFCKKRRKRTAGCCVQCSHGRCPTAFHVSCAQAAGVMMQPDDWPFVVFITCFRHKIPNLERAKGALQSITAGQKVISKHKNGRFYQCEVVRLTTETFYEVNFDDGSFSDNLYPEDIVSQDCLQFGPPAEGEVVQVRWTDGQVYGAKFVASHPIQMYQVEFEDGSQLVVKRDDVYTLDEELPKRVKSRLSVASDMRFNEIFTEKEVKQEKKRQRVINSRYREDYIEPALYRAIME
Sequence of UniProt P14416 (whole entry, looked up): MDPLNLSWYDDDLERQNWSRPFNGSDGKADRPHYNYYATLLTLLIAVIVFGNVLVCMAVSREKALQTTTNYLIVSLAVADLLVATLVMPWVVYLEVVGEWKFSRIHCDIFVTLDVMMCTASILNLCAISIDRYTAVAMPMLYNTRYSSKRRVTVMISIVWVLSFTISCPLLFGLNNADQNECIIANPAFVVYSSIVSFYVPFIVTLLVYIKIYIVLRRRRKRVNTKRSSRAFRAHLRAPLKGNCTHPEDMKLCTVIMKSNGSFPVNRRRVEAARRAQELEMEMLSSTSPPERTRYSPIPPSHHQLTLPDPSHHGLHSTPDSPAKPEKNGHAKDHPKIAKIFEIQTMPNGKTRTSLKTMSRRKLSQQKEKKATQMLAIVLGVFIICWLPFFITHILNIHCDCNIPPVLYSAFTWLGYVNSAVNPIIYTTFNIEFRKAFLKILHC

CCCCc1oc2ccccc2c1C(=O)c1cc(I)c(OCCN)c(I)c1  IC50 (Lysine-specific demethylase 4A, double tudor domain (KDM4A, Homo sapiens, UniProt O75164); fluorescence polarization): 72 ± 26 µM
SWIIELLE (ELF3 137-144 (Homo sapiens, UniProt P78545))  Ki (MED23 fragment (Homo sapiens); competitor, fluorescence polarisation; peptide): 4.27 µM
O=C1CCc2ccc(OCCCCN3CCCN(c4cccc(Cl)c4Cl)CC3)nc2N1  Emax (D(2) dopamine receptor (DRD2, Homo sapiens, UniProt P14416); β-arrestin recruitment, agonist; HTLA; baseline: quinpirole): 40 to 50%
Cc1ccc(C=NNC(=S)N[N+](=O)[O-])cc1  IC50 (Leishmania tropica; parasite growth, MTT; 72 h, promastigote): 331 µM
CCCC(CCC)C(=O)O  survival (mouse, pilocarpine-induced seizures; oral, 300 mg/kg, 24 h): 60%

For quick reference, copied from above:
CCCC(CCC)C(=O)O  survival (mouse, pilocarpine-induced seizures; oral, 300 mg/kg, 24 h): 60%
